Published values collected from several papers.
Lines come from different studies, so protocols differ. Values joined by “and” are separate records of one study, mostly repeats; a detail may differ. Numbers after ± are the reported error.
UniProt P49137, sequence (whole entry, looked up): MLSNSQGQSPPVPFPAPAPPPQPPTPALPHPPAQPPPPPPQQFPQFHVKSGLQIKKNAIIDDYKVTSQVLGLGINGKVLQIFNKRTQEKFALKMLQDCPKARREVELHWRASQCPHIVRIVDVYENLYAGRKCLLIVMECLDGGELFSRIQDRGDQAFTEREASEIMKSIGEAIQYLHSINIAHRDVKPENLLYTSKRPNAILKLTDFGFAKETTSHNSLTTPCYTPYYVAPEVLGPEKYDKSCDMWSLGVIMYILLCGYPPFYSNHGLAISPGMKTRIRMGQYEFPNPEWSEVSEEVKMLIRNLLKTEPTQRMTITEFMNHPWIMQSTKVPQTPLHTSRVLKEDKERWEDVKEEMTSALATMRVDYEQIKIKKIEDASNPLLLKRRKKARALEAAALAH

The remaining binding of `Nc1ncc(-c2cc(-c3cnn(CC(F)(F)F)c3)ncc2F)nc1C(=O)NC1CNCC(F)C1` (stereo not shown) is reported as 100% (NIM1; KINOMEscan; 1 µM; relative to: DMSO control).
For `O=C(N/N=C/c1ccc(C[n+]2ccccc2)cc1)c1cccc(C(=O)N/N=C/c2ccc(C[n+]3ccccc3)cc2)c1`, the ΔTm was 2.2 ± 0.2 °C (MYC parallel G4 DNA; FRET melting; 1 µM, DNA 0.2 µM).
`C=CC(=O)N1[C@H](c2ccc3c(c2)OCO3)c2[nH]c3ccccc3c2C[C@@H]1C(=O)NC1CC1` has a neuron degeneration of 83.3% and 83% (rat DRG neurons; 0.004572 µM, 48 h, added: vincristine 40 nM).
`C=C1CC2(C(=O)OC)C=C(C(=O)OC(C)(C)C)C(=O)C1C2` (stereo not shown) gave a luminescence of 6750 a.u. (AP-1 reporter HEK293; AP-1 reporter gene, luciferase reporter; 3 µM, 6 h, added: PMA 6 ng/mL; higher = more transcription).
Under “early apoptotic cells (annexin V+/PI-)”, `Cc1cc(Cl)cc(-c2ccnc3cc(CN4C(=O)C5C(C4=O)C5(C)C)sc23)c1C[C@@H]1CNCCO1` (stereo partly shown) is recorded as 7.44% and 6.25% and 9.14% (CHP-212 parental (wild-type USP7); annexin V-PI flow cytometry; 0.1 µM, 48 h).
`CC#CC#C/C=C1/O[C@@]2(CCCCO2)[C@@H](O)[C@@H]1OC(C)=O`: JNK phosphorylation “decreased” (RAW264.7; Western blot; concentration not given, added: LPS).
For `CC1(C)C[C@@H](Nc2cccc(-c3sc(C(=O)O)c(OCC(=O)O)c3Cl)c2)CCN1S(=O)(=O)Cc1cccc(NC(=O)CN2CCC(c3ccc4c(c3)oc(=O)n4C3CCC(=O)NC3=O)CC2)c1` (stereo partly shown), the fold change was 5.46 and 5.64 and 5.63 and 5.55 and 5.27 and 5.11 (B16-F10; HTRF, refers to: phospho-STAT1 Tyr701; 10 µM, added: IFN-γ; relative to: DMSO).
`Cc1cc(C)nc(SCC(=O)Nc2ncc(Cc3cccc(OCc4cn(-c5ccc(Cl)cc5)nn4)c3)s2)n1` has an inhibition of 29.8 ± 6.3% (PC-3M-luc; colony formation, colony forming; 10 µM).
`CCN(C(=O)c1cc(F)ccc1Oc1nncnc1N1CCC2(C1)CN([C@H](CCCN(C)CCOC)C(C)C)C2)C(C)C` has a GI50 of over 10 µM (Caco-2; cell growth or viability; 72 h).
With `COc1ccc(NC(=O)c2ccc3[nH]c(-c4ccc(N(C)C)cc4)nc3c2)cn1` the reporter activity was 3.71 (HCT-116; refers to: CXCL1-luc luciferase reporter; concentration not given, unit not given; relative to: DMSO).
`CCCCCCCCCCCC(=O)N[C@H](CO)C[C@@H](O)c1ccccc1`: “total ceramide level” 79600 pmol/sample and 74600 pmol/sample and 68900 pmol/sample (HeLa; HPLC-MS/MS; 1 µM, 24 h).
`Cc1ncsc1-c1ccc(C(C)NC(=O)C2CC(O)CN2C(=O)C(NC(=O)CCCCCCCCCCN2CCCC(Nc3ncc(Cl)c(Nc4ccccc4S(=O)(=O)C(C)C)n3)C2)C(C)(C)C)cc1` (stereo not shown): “log2 fold change” -1.41 (22Rv1; RNA-seq, refers to: ZNF200 mRNA; concentration not given; relative to: DMSO).
For `CO[C@@H]1[C@@H](OC(N)=O)[C@@H](O)[C@H](Oc2ccc3c(O)c(NC(=O)c4ccc(O)c(CC=C(C)C)c4)c(=O)oc3c2C)OC1(C)C`, the colony survival was 22.1% (DLD-1 BRCA2-/-; 75 µM, mean of replicates A, B; relative to: untreated).
For `COC1CN([C@H]2CC[C@H]([C@@]3(C)Oc4c(Cl)cc(C(=O)NCc5c(SC)cc(C)[nH]c5=O)c(C)c4O3)CC2)C1`, “log2 fold change” read 0.69 (RNA-seq, refers to: NPL mouse homolog; mouse, HT-1376 xenograft, whole blood; dose not given; relative to: vehicle).
Under “log2 fold change”, `CN1CCCNC(=O)c2cccc(c2)C(=O)NCCCN(C)CCCNc2cccc3c2C(=O)c2cccc(c2C3=O)NCCC1` is recorded as -0.821 (SAS; RNA-Seq, refers to: SYNE2 mRNA; 1 µM, 6 h; relative to: untreated cells).
`C=CC(=O)N1CCCC(n2c(=O)c3ncccc3n(Cc3ccc(Oc4ccccc4)cc3)c2=O)C1` (stereo not shown) has an IC50 of 2 µM (Farage; cell growth or viability, MTT; 72 h).
The IC50 of `CNS(=O)(=O)Nc1nccc(Cc2c(C)c3ccc(Oc4ncccc4F)cc3oc2=O)c1F` is reported as over 1 µM (DLD-1; cell viability; 7 days).
The viability of `COc1cc(N2CCN(C(=O)C3CCCN3)CC2)ccc1Nc1ncc(Cl)c(Nc2ccccc2P(C)(C)=O)n1` (stereo not shown) is reported as 69% (NCI-H3122; CCK-8; 10 nM, 48 h).
The phototoxicity index of `COc1ccc(C([O-])=CC(=O)c2ccc(C(C)(C)C)cc2)cc1.[Ru+2].c1ccc(-c2ccccn2)nc1.c1ccc(-c2ccccn2)nc1` is reported as 1.8 (HL-60; relative to: dark IC50 over light IC50).
`C=CC(=O)Nc1cccc(Cn2ncc3cnc(Nc4cnn(CCOC)c4)nc32)c1` — result for “percent of control”: 71% (MELK human; binding, KINOMEscan; 100 nM; lower = stronger binding).
`Cn1ncc2cc(-c3cncc(Cl)c3N3CCC4(CCNC4=O)CC3)ccc21`: “log2 fold change” 1.29 (LS174T; gene expression, microarray, refers to: ANKRD37 mRNA; concentration not given, 4 h; relative to: untreated cells).
`COC1=C2CC(C)CC(OC)C(O)C(C)C=C(C)C(OC(N)=O)C(OC)C=CC=C(C)C(=O)NC(=CC1=O)C2=O` (stereo not shown) — result for “log fold change”: -0.505 (Rh30; ChIP-seq, refers to: H3K36me3 peak; concentration not given, FLOT1 intron chr6:30688200-30712199; relative to: untreated control).
With `Cc1[nH][n+]([Pd-2]([Cl])([Cl])[n+]2[nH]c(C)c(CSC3CCCCC3)c2C)c(C)c1CSC1CCCCC1` the selectivity index was 1.2 (U-937; cytotoxicity; relative to: IC50 HEK293 over IC50 U-937).
The GI50 of `COc1ccccc1C(=O)NCC(=O)Nc1ccc2[nH]nc(/C=C/c3ccccn3)c2c1` is reported as 2 µM (Ba/F3 TEL-VEGFR1; cell growth, CCK-8).
With `[Cl-].[Cl-].[Ru+2].c1cc(-c2ccc3cccnc3n2)nc(-c2ccc3cccnc3n2)c1.c1ccc2cc3nc4c5cccnc5c5ncccc5c4nc3cc2c1` the phototherapeutic index was 14 (A-375; visible light 100 J/cm2; relative to: dark EC50 over light EC50).
The live cells of `CC(C)C[C@@H]1NC(=O)[C@H](CC(C)C)NC(=O)[C@H](Cc2c[nH]c3ccccc23)NC(=O)[C@H](CO)NC(=O)[C@H](Cc2c[nH]c3ccccc23)NC(=O)[C@@H]2CCCN2C(=O)[C@H](CC(C)C)NC(=O)[C@H](Cc2c[nH]cn2)NC(=O)[C@@H]2CCCN2C(=O)[C@H](CC(N)=O)NC(=O)[C@H](C)NC(=O)[C@H](Cc2ccc(O)cc2)NC(=O)[C@H](CS)NC(=O)[C@H](CCCCNC(=O)CN2CCN(CC(=O)O)CCN(CC(=O)O)CCN(CC(=O)O)CC2)NC1=O` [lutetium-177 labelled] is reported as 43.8% (4T1; flow cytometry; 0.4 Bq/cell, 72 h).
`CC(C)(C)c1cc(-c2ccc3cc4ccccc4nc3n2)nc(-c2ccc3cc4ccccc4nc3n2)c1.Cc1ccncc1.[Cl-].[Cl-].[Ru+2].c1ccc2cc3nc4c5cccnc5c5ncccc5c4nc3cc2c1` has a phototoxicity index of 4 (A-375; resazurin; added: light 633 nm, 100 J/cm2; relative to: dark EC50 over light EC50).
For `O=C(N/N=C/c1cc[n+](Cc2ccccc2)c2ccccc12)c1cccc(C(=O)N/N=C/c2cc[n+](Cc3ccccc3)c3ccccc23)n1`, the ΔTm was 11 ± 0.4 °C (MYC parallel G4 DNA; FRET melting; 1 µM, DNA 0.2 µM).
`Cc1nn(-c2cccc(N)c2)c(=O)c2cnc(Nc3ccc(N4CCNCC4)cc3)nc12` has an IC50 of 1.46 µM (MAP kinase-activated protein kinase 2 (MAPKAPK2, Homo sapiens, UniProt P49137); kinase activity, inhibitor, SelectScreen kinase profiling).
For `COc1cccc(OC)c1-c1cc(C(=O)NC2(C(=O)O)C3CC4CC(C3)CC2C4)nn1-c1ccc(C(=O)N(C)CCCN(C)C(=O)[C@H](CCCCNC(=O)[C@H](CC(C)C)NC(=O)C2OC2C(=O)O)NC(=O)CN2CCN(CC(=O)[O-])CCN(CC(=O)[O-])CCN(CC(=O)[O-])CC2)cc1C(C)C.[177Lu+3]` (mixture of isomers), the surface-bound fraction was 3.92 ± 0.46% (HT-29; concentration not given, 120 min; relative to: added activity).
`CN(C)c1ccc(-n2cc(COC(=O)[C@@]3(C)C=C(C(=O)OC(C)(C)C)C(=O)CC3)nn2)cc1` — result for “luminescence relative to PMA”: 0.701 (AP-1 reporter HEK293; AP-1 reporter gene, luciferase reporter; 3 µM, 6 h, added: PMA 6 ng/mL; relative to: PMA alone).
With `CC(C)c1ccc(N(C)c2ccc3c(c2)OCC[C@H]3CNc2cnccc2C(=O)O)cc1` the IC50 was at least 10 µM (KURAMOCHI; cell growth or viability, ATP luminescence; 7 days).
With `CC(=O)OC[C@H]1O[C@@H](n2cc(CSc3nc4ccccc4n3Cc3cn([C@@H]4O[C@H](COC(C)=O)[C@@H](OC(C)=O)C(OC(C)=O)[C@H]4OC(C)=O)nn3)nn2)[C@H](OC(C)=O)C(OC(C)=O)[C@@H]1OC(C)=O` (stereo in doubt) the cytotoxicity was 91.4% (Caco-2; MTT; 500 ppm).
`Cc1cc(-c2ccc(S(=O)(=O)C3CC(C(=O)NC4(C#N)CC4)N(C(=O)C4(C(F)(F)F)CC4)C3)c(C(F)(F)F)c2)ccn1` (stereo not shown): “BRCA1 protein level” “no effect” (MDA-MB-436 (BRCA1 mutant); Western blot; concentration not given, 24 h).

Excerpt of the above:
The phototoxicity index of `COc1ccc(C([O-])=CC(=O)c2ccc(C(C)(C)C)cc2)cc1.[Ru+2].c1ccc(-c2ccccn2)nc1.c1ccc(-c2ccccn2)nc1` is reported as 1.8 (HL-60; relative to: dark IC50 over light IC50).
`C=CC(=O)Nc1cccc(Cn2ncc3cnc(Nc4cnn(CCOC)c4)nc32)c1` — result for “percent of control”: 71% (MELK human; binding, KINOMEscan; 100 nM; lower = stronger binding).
`Cn1ncc2cc(-c3cncc(Cl)c3N3CCC4(CCNC4=O)CC3)ccc21`: “log2 fold change” 1.29 (LS174T; gene expression, microarray, refers to: ANKRD37 mRNA; concentration not given, 4 h; relative to: untreated cells).
